Experimental data of several laboratories.
Each numbered part is a random draw from the data of one study; scales do not carry over between parts. Substitutions count along the parent as printed.

Set 1
Target: Prothrombin, mature alpha-thrombin (F2, Homo sapiens, UniProt P00734)
Method: aptamer microarray, sandwich
Molecule type: DNA with 2'F-ANA
Medium: in vitro
Concentration: 200 nM
Setting: whole 15-mer aptamer, many near background
With: Cy3 exosite-II aptamer, 400 nM
Direction: higher = stronger binding
Sequence: GGTTGGTGTGGTTGG
| Modification | mean fluorescence intensity |
| --- | --- |
| 2'F-ANA at 1 3 4 5 6 9 10 15 | 48.9 a.u. |
| 2'F-ANA at 4 5 6 7 9 11 12 | 123 a.u. |
| 2'F-ANA at 2 4 6 7 9 10 12 14 15 | 65.7 a.u. |
| 2'F-ANA at 1 2 3 4 5 6 7 8 9 12 14 15 | 67.6 a.u. |
| 2'F-ANA at 1 3 4 5 6 7 8 12 13 14 15 | 52.4 a.u. |
| 2'F-ANA at 2 3 5 7 8 11 13 15 | 99.8 a.u. |
| 2'F-ANA at 2 3 5 6 7 9 | 95.3 a.u. |
| 2'F-ANA at 1 3 5 6 7 8 9 10 11 14 15 | 67.7 a.u. |
| 2'F-ANA at 1 2 3 4 5 6 7 | 60.8 a.u. |
| 2'F-ANA at 1 4 6 7 8 12 13 14 15 | 59.8 a.u. |
| 2'F-ANA at 3 6 7 9 10 14 15 | 423 a.u. |
| 2'F-ANA at 2 3 4 5 6 12 15 | 195 a.u. |
| 2'F-ANA at 3 4 7 8 9 10 12 13 15 | 281 a.u. |
| 2'F-ANA at 3 4 7 8 10 11 13 15 | 269 a.u. |
| 2'F-ANA at 1 4 6 7 9 12 13 14 15 | 54.9 a.u. |
| 2'F-ANA at 2 4 5 8 10 11 12 | 48.9 a.u. |
| 2'F-ANA at 1 3 4 5 7 9 10 12 | 58.6 a.u. |
| 2'F-ANA at 2 5 7 8 11 12 13 14 15 | 53.2 a.u. |

Set 2
Target: Histone acetyltransferase KAT6A, winged helix 2, GST fusion (KAT6A, Homo sapiens, UniProt Q92794, residues 85-181)
Method: protein binding microarray
Molecule type: double-stranded DNA, one strand shown
Medium: in vitro
Concentration: not given
Setting: 8-mer, flanks averaged, mean of 2 arrays, mostly near background
Relative to: not given
Direction: higher = stronger binding
Residues (chain): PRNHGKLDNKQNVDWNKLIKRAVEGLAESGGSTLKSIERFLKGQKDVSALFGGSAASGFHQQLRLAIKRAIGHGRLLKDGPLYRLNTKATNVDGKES
| Sequence | E-score |
| --- | --- |
| GCTTTTAC | 0.0175 |
| GGCTCCTA | 0.0664 |
| AAAGTTGG | -0.0185 |
| AAATCGAG | 0.0573 |
| CCAGAGCA | 0.223 |
| CAAGAGTC | -0.0527 |
| AACTGCGA | 0.108 |
| GGTTCTTA | 0.00726 |
| ACTCTCGG | 0.146 |
| CTGAGCGC | 0.191 |
| ACTAGAAT | -0.116 |
| AATTCAAT | 0.0355 |
| GCGCGTGA | 0.11 |
| CCGACGTA | -0.105 |
| GTCGAAAC | 0.124 |
| ACAGAGGC | -0.00167 |

Set 3
Target: ABI1, truncated, D143A, DHFR fusion (Arabidopsis thaliana)
Method: DHFR PCA, deep sequencing
Medium: yeast
Setting: methotrexate growth selection, single substitutions
With: (+)-ABA 0.11 µM
Relative to: wild-type fitted maximum
Direction: higher = stronger binding
Parent: PYL1, truncated, DHFR fusion (Arabidopsis thaliana); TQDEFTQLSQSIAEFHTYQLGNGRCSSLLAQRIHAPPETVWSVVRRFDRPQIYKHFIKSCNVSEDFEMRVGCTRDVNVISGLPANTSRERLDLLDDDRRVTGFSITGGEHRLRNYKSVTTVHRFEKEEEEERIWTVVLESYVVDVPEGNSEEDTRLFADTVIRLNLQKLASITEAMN
| Change | relative binding score [%] |
| --- | --- |
| V44H | -2.64 |
| W134M | 38.3 |
| A35F | -4 |
| V40M | -7.55 |
| R123D | 13.2 |
| F5R | 14.2 |
| L164R | 11.2 |
| F124N | 1 |
| S117L | -1.9 |
| K58G | -5.13 |
| I133R | 10.1 |
| W41T | -4.75 |
| G23C | -8.84 |
| A84Y | 93.7 |
| D153W | 4.47 |
| R90G | -2.96 |
| T17H | -1.73 |
| H34G | 9.39 |
| L29N | 6.09 |
| G81P | 33.1 |

Set 4
Target: CCNB3, cyclin fold, Cln2 fusion (human)
Method: yeast growth competition, sequencing
Medium: yeast
Setting: strong parent motif
Relative to: not given
Direction: higher = stronger binding
Parent: E2F1 docking peptide (human); PPVKRRLDFETDH
| Change | normalised enrichment score |
| --- | --- |
| T11W | 2.26 |
| R6D | -0.271 |
| F9Y | 0.533 |
| D12F | 3.12 |
| E10A | 2.26 |
| E10P | 1.43 |
| T11A | 1.94 |
| D8W | 1.15 |
| R5M | 0.0966 |
| P2V | 1.51 |
| V3I | 1.18 |
| K4L | 0.763 |
| F9G | -0.118 |
| D12C | 3.24 |
| R6L | 1.44 |
| R5I | 0.106 |
| D12S | 3.06 |
| T11M | 2.98 |
| T11L | 3.01 |
| L7E | -0.00685 |
| V3P | 0.977 |
| K4H | 0.378 |
| L7C | 0.0974 |
| R6N | 0.433 |
| L7G | -0.544 |

Repeated from above (set 2):
| Sequence | E-score |
| --- | --- |
| ACTAGAAT | -0.116 |
| CTGAGCGC | 0.191 |
| GCGCGTGA | 0.11 |
| AACTGCGA | 0.108 |
| AAATCGAG | 0.0573 |
| CCAGAGCA | 0.223 |
| CAAGAGTC | -0.0527 |
| GCTTTTAC | 0.0175 |
| GTCGAAAC | 0.124 |
